{"data": "Published values gathered from unrelated publications", "note": "Protocols differ between the studies behind these lines. ± marks the error that the study gave."}
{"Structure (SMILES)": "C=C(C)[C@@H]1CC[C@]2(CO)CC[C@]3(C)[C@H](CC[C@@H]4[C@@]5(C)CCCNC(C)(C)[C@@H]5CC[C@]43C)[C@@H]12", "cell line": "primary HFF", "assay": "cell viability, CellTiter-Glo", "conditions": "HSV-1 assay setting", "CC50": "25.7 µM"}
{"Structure (SMILES)": "CCCCCCC(=O)CCCCCC/C=C/C[C@@H](O)[C@H](O)[C@@](N)(CO)C(=O)O", "cell line": "VeroE6/TMPRSS2", "assay": "cell growth or viability", "conditions": "72 h", "CC50": "> 20 µM"}
{"Structure (SMILES)": "C1=[N+]2CCCC[N+]3=Cc4ccc5[n]4[Au-]23[n]2c1ccc2-c1nc2ccccc2nc1-5.F[P-](F)(F)(F)(F)F", "cell line": "prostate cancer cell lines", "conditions": "NCI60 panel mean", "CC50": "> 100 µM"}
{"Structure (SMILES)": "CC[C@H](C)[C@@H]1NC(=O)[C@H](CCCCN)NC(=O)[C@H](CCCCN)NC(=O)[C@H](Cc2ccc(O)cc2)NC(=O)[C@H](CC(C)C)NC(=O)[C@@H]2CCCN2C(=O)[C@H](C)NC(=O)CNC(=O)CNC(=O)[C@H](CO)NC(=O)CNC(=O)CNC(=O)[C@H](CO)NC(=O)[C@H]([C@@H](C)O)NC(=O)[C@H](CC(C)C)NC(=O)[C@H](CC(C)C)NC(=O)[C@H](C)NC(=O)[C@H](Cc2c[nH]c3ccccc23)NC(=O)[C@H](Cc2ccc(O)cc2)NC(=O)[C@H](Cc2c[nH]cn2)NC(=O)[C@H](CCC(=O)O)NC(=O)[C@H](Cc2ccccc2)NC(=O)[C@H]([C@@H](C)O)NC(=O)[C@H](CC(C)C)NC(=O)[C@@H]2CCCN2C(=O)CNC(=O)CNC(=O)CSC[C@@H](C(N)=O)NC(=O)[C@H](CC(C)C)NC(=O)[C@H](CCCCN)NC(=O)[C@H](CCCCN)NC(=O)[C@H]([C@@H](C)CC)NC1=O", "cell line": "human PBMC", "assay": "cell viability, resazurin", "conditions": "24 h", "CC50": "20.5 ± 0.8 µM"}
{"Structure (SMILES)": "Cc1cc(C)cc([C@@H]2C[C@H]2C(=O)N[C@@H](C(=O)NCc2ccccc2)c2ccc(C)c(C)c2)c1", "cell line": "BHK-21", "assay": "cell growth or viability, MTT", "conditions": "24 h", "CC50": "> 100 µM"}
{"Structure (SMILES)": "CC(C)C[C@@H]1NC(=O)[C@@H](Cc2c[nH]c3ccccc23)NC(=O)[C@H](CCCCN)NC(=O)[C@@H](Cc2c[nH]cn2)NC(=O)[C@H](CO)NC(=O)[C@@H](Cc2c[nH]cn2)NC(=O)[C@H](CCCCN)NC(=O)[C@@H](Cc2c[nH]c3ccccc23)NC1=O", "cell line": "SK-OV-3", "assay": "cytotoxicity", "CC50": "8.5 µM"}
{"Structure (SMILES)": "O=C(CCN(CCC(=O)NC(Cc1c[nH]c2ccccc12)C(=O)O)C(=O)c1cc(C(=O)N(CCC(=O)NC(Cc2c[nH]c3ccccc23)C(=O)O)CCC(=O)NC(Cc2c[nH]c3ccccc23)C(=O)O)cc(C(=O)N(CCC(=O)NC(Cc2c[nH]c3ccccc23)C(=O)O)CCC(=O)NC(Cc2c[nH]c3ccccc23)C(=O)O)c1)NC(Cc1c[nH]c2ccccc12)C(=O)O (centres unmarked)", "cell line": "RD", "conditions": "3 (unit not given)", "CC50": "> 57 µM"}
{"Structure (SMILES)": "CC(C)C[C@H](NC(=O)OCc1ccccc1)C(=O)N[C@@H](C[C@@H]1CCNC1=O)C(O)S(=O)(=O)O (some centres unmarked)", "cell line": "RD", "conditions": "3 (unit not given), 37 °C", "CC50": "> 50 µM"}
{"note": "Repeated from above:"}
{"Structure (SMILES)": "Cc1cc(C)cc([C@@H]2C[C@H]2C(=O)N[C@@H](C(=O)NCc2ccccc2)c2ccc(C)c(C)c2)c1", "cell line": "BHK-21", "assay": "cell growth or viability, MTT", "conditions": "24 h", "CC50": "> 100 µM"}
